Assay results of several laboratories.
Each numbered part is a random draw from the data of one study; scales do not carry over between parts.

Set 1 — technique: competition protein-binding microarray; molecule type: double-stranded DNA, one strand shown; medium: in vitro; concentration: 2 µM; with: Pho4 competitor, 0.05 µM; direction: higher = stronger binding
Target: Centromere-binding protein 1, full length, His-tagged (CBF1, Saccharomyces cerevisiae, UniProt P17106, residues 1-351)
Chain of UniProt P17106 (whole entry, looked up): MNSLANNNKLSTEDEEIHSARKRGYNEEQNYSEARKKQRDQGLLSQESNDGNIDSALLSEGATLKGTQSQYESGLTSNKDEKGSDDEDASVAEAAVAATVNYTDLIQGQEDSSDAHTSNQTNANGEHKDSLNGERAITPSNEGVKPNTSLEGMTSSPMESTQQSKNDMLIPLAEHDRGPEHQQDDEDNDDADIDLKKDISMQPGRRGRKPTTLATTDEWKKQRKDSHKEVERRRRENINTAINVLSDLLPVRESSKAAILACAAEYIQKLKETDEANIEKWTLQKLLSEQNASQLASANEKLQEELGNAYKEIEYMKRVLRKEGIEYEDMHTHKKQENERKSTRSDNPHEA
Notes: whole 60-bp probe, lowest competitor level
Strand | fluorescence intensity
GCCGCTTCTTTATGCACCGTGGAGTAATTACCGAATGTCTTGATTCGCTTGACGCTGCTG | 83.6 a.u.
TGAGAACATCCAACTAGCGTGCCGATGCAATCCCAGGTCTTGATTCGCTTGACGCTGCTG | 67.3 a.u.
CTTTCCCGATCTTGTCACGTCACTTTAGCACATTTGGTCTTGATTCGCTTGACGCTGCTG | 128 a.u.
CCTGCCAAGGGTAACCACGTGCTGGGAGATTTGCAGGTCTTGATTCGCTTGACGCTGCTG | 1810 a.u.
GTCTTGTCTCATTTTCACGTGGGCTTCCCCACTTCAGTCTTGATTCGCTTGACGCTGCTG | 671 a.u.
AAAGCGGTAATTTGGTACGTGGGTGCAGATATCTATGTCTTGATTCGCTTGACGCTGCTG | 73.9 a.u.
GACAGATGTGGAGTCAGCGTGGGTAGTGGGGTAACAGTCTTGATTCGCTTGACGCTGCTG | 79.7 a.u.
CCAAACATTGTTCACCACGATGTTGTTCCAATGTTGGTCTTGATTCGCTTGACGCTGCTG | 83.4 a.u.
GGGAAAAAAATTGACCACGTGACTCGAGAATCAACTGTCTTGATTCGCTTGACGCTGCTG | 15400 a.u.
GCCGGCCTTTATACCCACGGGTGCATCTTCAAAGACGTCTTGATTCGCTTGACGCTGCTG | 70.9 a.u.
CCTCACTCTTTTCCTCTCGTGACGGATTCAACATCAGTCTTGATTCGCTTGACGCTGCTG | 244 a.u.
TTTCTAATTGGCCATCACGTTCAATAGTGGCTCTGAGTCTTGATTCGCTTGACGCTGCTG | 257 a.u.
AGGATAATCAGCTCTGTCGTGACGGATAAATGCTATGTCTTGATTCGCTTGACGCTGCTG | 146 a.u.
TTCCAAATCCTTCTCCTCGTGGACCCCTTGGGCGATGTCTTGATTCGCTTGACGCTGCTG | 64.3 a.u.
GGATAATGCTTTTTTCCCGTGGCCGTTACATTTTTGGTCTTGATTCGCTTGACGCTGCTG | 92.7 a.u.
AAATTACTAAGTTGAGTTGTGGGTGACGCCGTATGAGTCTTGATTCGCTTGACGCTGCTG | 70.9 a.u.
GTCTTGTCTCATTGTCACAAGACTTTCCCCACTTCAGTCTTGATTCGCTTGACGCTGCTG | 170 a.u.
TGAGGGTGAGTATGGCATGTGGTGGTGGGATTGGAGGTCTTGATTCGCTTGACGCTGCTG | 84.5 a.u.

Set 2 — technique: RNA Bind-n-Seq; molecule type: RNA; medium: in vitro; concentration: 365 nM; baseline: no-protein control; direction: higher = stronger binding
Target: RNA binding protein fox-1 homolog 2, RRM domain, GST-SBP tag (RBFOX2, Homo sapiens, UniProt O43251-10, residues 100-194)
Notes: natural RNA segment, single round, ends assumed
Target sequence (chain): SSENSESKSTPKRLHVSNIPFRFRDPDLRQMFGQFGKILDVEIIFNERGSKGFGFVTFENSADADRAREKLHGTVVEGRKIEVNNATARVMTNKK
Strand | RBNS enrichment (R)
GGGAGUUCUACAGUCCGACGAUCGCUGGGAUGCGUUUUUCUUGGUGUUGCAUGCUCACAACUCUGCUGACAUUGGGAACUUAUGAGAGAGGAAGACUCGGGAAAGCACAGAUACUGGACAGAUGGAUUCUGGUUGGAAUUCUCGGGUGCCAA | 15
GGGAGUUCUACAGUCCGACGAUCCCUUCGACCACAGCAAGCCAUCAUCCUCCAUUGCUCCCGGGGACUCAAGAGGAAUCUGUUUCUCUGCUGUCAACUUCCCAUCUGGCUCAGCAUAGGGUCACUUUGCCAUUUGGAAUUCUCGGGUGCCAA | 0.729
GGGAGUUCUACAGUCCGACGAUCUUCUGUACCUGACUUUGGGCAACAGGUAUCAAAAGCCUCAAGAGAACAGUUUCUCUGAUAAGAUUAUUUUAUACCAGGGGUCAGAAGACUCCACUCACGGGCCAAGUUUGUGGAAUUCUCGGGUGCCAA | 0.396
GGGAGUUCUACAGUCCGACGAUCCUGCCUUAAGUGAGUCCCGCCCACUCCCUGCCUCCCUCCGAGGUGGGCGGGAGUUCCUACCCCAUCUCUGCUUCCCCUGGAGGCCGGCCAGCGUUUGUGGGUUGGUUCAGUGGAAUUCUCGGGUGCCAA | 0.64
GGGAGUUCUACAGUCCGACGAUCGAGUGGGUCCGUCGUCCCCAACACUCGUGCUCGCUCAGACACUUUGGCAGGAUGUCUGGGGCCUCACCAGCAGGAGCGCGUGCAAGCCGGGCAGGCGGUCCACCUAGACCUGGAAUUCUCGGGUGCCAA | 0.609
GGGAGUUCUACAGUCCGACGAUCUAGUUGCCAGAUCUCUACUUUUAUCCUGCAUGGGAUAAUAUAUCUGUAAAUGCAUGAGUUUGGAAACCACCCAUCAAAUAUGAAAGGCUGAUGAGACUGUUAGGAUUGAUUGGAAUUCUCGGGUGCCAA | 9.18
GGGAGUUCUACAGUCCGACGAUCUGUAAGUGGUGGAGAGUGCUGUCCUGUGUAGGCAGCUUCUGACUGCAGUUGAAAUGUAGUCCCCUAGAAUCCUAAAGGCUGUUAUUCUCAUCCUAGUUCCAGGUGUAACUUGGAAUUCUCGGGUGCCAA | 0.31
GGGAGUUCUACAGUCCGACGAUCGCAGGAAGUGGGAGGAUCUAAAAAUAGUUUUGAGAUUGUCUUUAAAAAUAAUAAAGAGUAGUUUCUUAUACUUGGUAUCAUUUUCAGUAUUUUCACAUCUCUGUACUGAAUGGAAUUCUCGGGUGCCAA | 0.559
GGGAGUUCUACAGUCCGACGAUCCAAGUUUUUCUCUGGGGUCCUCUUUCAAGGAUGUCCACGGUACCUUCCUCCUGAAACUUGAGGAAGUCUUUUGUCUUCCAGCUGCUCAGGGUUCUCUGGUCCAAGACCCUUGGAAUUCUCGGGUGCCAA | 0.234
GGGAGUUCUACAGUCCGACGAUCCCAAAAAUGAAUAUAGUUUCCUUUUUCAAAUCUGAAGGCAUGUGGGAAGCAGUGAGCAAAACCUGUGGUUAUUAACGGAAAAGUCUUUUAUUACAAAGUCAAUUAAAACUUGGAAUUCUCGGGUGCCAA | 10.3

Set 3 — technique: protein-binding microarray; molecule type: double-stranded DNA, one strand shown; medium: in vitro; concentration: 2200 nM top; notes: 60-bp whole probe; with: salmon DNA 0.4 mg/ml; baseline: random background probes; direction: higher = stronger binding; shared flanks, not repeated: GCCTAGCAC … GTCTTGATTCGCTTGACGCTGCTG
Target: Interferon regulatory factor 7, full length, phosphomimetic (IRF7, Homo sapiens, UniProt Q92985, residues 1-503, S471D/S472D/S475D/S476D/S477D/S483D/S484D/S487D)
Chain of UniProt Q92985 (whole entry, unmodified, looked up): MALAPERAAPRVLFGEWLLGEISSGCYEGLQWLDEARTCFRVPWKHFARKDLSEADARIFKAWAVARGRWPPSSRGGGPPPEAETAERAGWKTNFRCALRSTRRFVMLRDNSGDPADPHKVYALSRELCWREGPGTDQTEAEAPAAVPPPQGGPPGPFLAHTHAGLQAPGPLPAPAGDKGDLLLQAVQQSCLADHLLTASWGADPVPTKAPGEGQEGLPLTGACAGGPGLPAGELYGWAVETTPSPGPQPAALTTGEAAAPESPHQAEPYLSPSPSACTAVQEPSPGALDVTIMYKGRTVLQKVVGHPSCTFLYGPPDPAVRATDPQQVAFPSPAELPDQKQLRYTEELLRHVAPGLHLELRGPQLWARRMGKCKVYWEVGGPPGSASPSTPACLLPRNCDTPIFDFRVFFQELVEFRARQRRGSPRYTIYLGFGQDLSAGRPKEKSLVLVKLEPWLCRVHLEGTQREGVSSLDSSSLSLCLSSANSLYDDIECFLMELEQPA
Strand | fitted relative affinity
CACAGGCTGCACAGAATGTAGTGCTAG | -0.46 z-score
GACGATATCGGGTATCGACACGTGCTA | 0.441 z-score
GACGATTTGAGTATCGAGACGTGCTAG | 0.545 z-score
TTAGGTTTCAGACTGGGTTAGTGCTAG | 0.754 z-score
TTTCTTTTATGCTCTTTCTACGTGCTA | 3.68 z-score
TAGTTGCAAGCCATGGGTGGGTGCTAG | -0.42 z-score
TCACTTTCAGTTCTCCCACTGTGCTAG | 11.3 z-score
TTAGGGCTGGGGTTTCGGTTAGTGCTA | 2.18 z-score
CACGGTTTCGGGACTGGGGACGTGCTA | 3.84 z-score
CTAGGTTTCGGTATCGGTTAGTGCTAG | 7.7 z-score
TTAGACCTCAGTCTCGATTAGTGCTAG | 0.146 z-score
TTAGGTCTCGGTATTGGTTAGTGCTAG | 0.779 z-score
GACGGTATCGACACTGGGGAAGTGCTA | -0.534 z-score
GACGATATCAGTTTCAAGACGTGCTAG | 0.742 z-score
TTAGAACTGAGACTGGATCAGTGCTAG | -0.575 z-score

Other studies, line by line
Substance | target | assay | system | setting | scale | endpoint | value
PhoQ, residues 284 288 289 292 302 303 GASLAW | PhoP, residues 12 14 15 18 19 NQFFI (Escherichia coli, UniProt P23836) | Sort-seq, refers to: YFP reporter | E. coli | PhoQ-PhoP variant library, with: 10 µM Mg2+ | baseline: high Mg2+ state, higher = stronger signaling | fold induction | 3.1

Excerpt of the above (set 1):
Strand | fluorescence intensity
AAAGCGGTAATTTGGTACGTGGGTGCAGATATCTATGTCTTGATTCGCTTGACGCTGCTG | 73.9 a.u.
TTCCAAATCCTTCTCCTCGTGGACCCCTTGGGCGATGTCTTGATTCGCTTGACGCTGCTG | 64.3 a.u.
GTCTTGTCTCATTGTCACAAGACTTTCCCCACTTCAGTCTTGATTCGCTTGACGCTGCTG | 170 a.u.
GCCGGCCTTTATACCCACGGGTGCATCTTCAAAGACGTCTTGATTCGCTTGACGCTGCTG | 70.9 a.u.
